Measurements of several laboratories.
Each line is one published result; not all experiments were run side by side.

FC(F)(F)c1ccc(CNc2ccc(Cc3c[nH]c4ncc(Cl)cc34)cn2)cn1
patients with treatment-related adverse event (measured: blood alkaline phosphatase increased; non-TGCT solid tumour patients; oral, 1000 mg/day, grade 3 or higher): 2%

CNC(=O)c1ccc(-c2cnc3ncc(Cc4ccc5ncccc5c4)n3n2)cc1F
patients with adverse event (measured: Cough; hepatocellular carcinoma patients; oral, 600 mg twice daily, expansion cohort, grade 3-4): 0%

C[C@@H](c1ccc2nccn2c1)n1nnc2ncc(-c3cnn(C)c3)nc21
patients with adverse events (measured: treatment-related grade ≥3 Myalgia; EGFR-mutant MET-altered NSCLC; oral, dose not given): 0%

C[C@@H](Nc1cc(F)cc(F)c1)c1cc(C(=O)N(C)C)cc2c(=O)cc(N3CCOCC3)oc12
patients with related SAE (CTCAE v4, measured: maculopapular rash; patients with advanced solid tumours; oral, dose not given, phase I dose finding): 3.2%

CCOc1c([C@H](C)n2nc(C)c3c(N)ncnc32)cc(Cl)c(F)c1[C@@H]1CNC(=O)C1
patients (measured: QTcF ≤450 ms; previously treated B-cell malignancy; oral, 15 mg once daily, overall population): 100%

NC(=O)N1c2ccccc2C=Cc2ccccc21
patients with Constipation (male patients; oral, dose not given, on-treatment adverse events): 20%

Cc1cc(NC2CCN(C(=O)OC3CCN(C(=O)/C=C/CN(C)C)C3)CC2)n2ncc(C(C)C)c2n1 (stereo not shown)
patients with adverse event (Phase I dose escalation CTCAE v4.0, measured: platelet count decreased; patients with advanced solid tumours; dose not given, TIW dosing grade 3 or higher): 0%

COc1cc(Nc2ncc3c(n2)-c2ccc(Cl)cc2C(c2c(F)cccc2OC)=NC3)ccc1C(=O)O
patients with adverse event (measured: Diarrhea, grade 1; cancer patients, phase 1/2; oral, dose not given, added: pembrolizumab): 17%

COc1ccc([C@@H](O)c2cc(-c3ncnc4cc(N5CCOCC5)ccc34)c(F)cc2Cl)nn1
patients with drug-related AE (measured: Nausea; locally advanced rectal cancer patients; dose not given, all dose groups, added: capecitabine plus radiotherapy): 26%

O=C(Nc1nc2cccc(-c3ccc(CN4CCS(=O)(=O)CC4)cc3)n2n1)C1CC1
patients with body temperature increased (rheumatoid arthritis patients; oral, 100 mg twice daily, 4 weeks, regardless of relatedness): 0%

A few entries again:
CCOc1c([C@H](C)n2nc(C)c3c(N)ncnc32)cc(Cl)c(F)c1[C@@H]1CNC(=O)C1
patients (measured: QTcF ≤450 ms; previously treated B-cell malignancy; oral, 15 mg once daily, overall population): 100%
